Measurements pooled from the literature.
Several values in a cell are separate wells, animals, samples, runs or records. Numbers after ± are the reported error.

`CNC(=O)CC[C@H](Cc1ccccc1)NC(=O)[C@@H](Cc1ccc(Cl)cc1Cl)NC(=O)[C@H](N)Cc1ccccc1[N+](=O)[O-]` has a viability of 0.893 and 0.961 and 0.924 (Huh-7-ACE2; CellTiter-Glo; 0.000763 µM, 48 h, unit not given; reference: DMSO).
`CN(C)CCCNC(=O)[C@@H]1NC(=O)[C@@H]2Cc3ccc(cc3)Oc3cc4cc(c3O)-c3ccc5c(c[nH]c5c3)C[C@@H](NC(=O)C(NC(=O)CCCCCN)c3ccc(O)cc3)C(=O)N[C@H](c3ccc(O)cc3)C(=O)N[C@H]4C(=O)N[C@@H](C(=O)N2C)c2ccc(cc2)Oc2cc1ccc2O` (some centres unmarked) gave a hemolysis of 0% (human red blood cells; PBS; 0.5 µg/mL, 1 h, pH 7.4, 37 °C).
`O=C1NC2(CC2)COc2ncc(F)cc2[C@H]2COCCN2c2ccn3ncc1c3n2` — result for “alkaline phosphatase activity”: 102 ± 9.4 U/L (Sprague-Dawley rat, male, serum; oral, 5 mg/kg/day, 4 weeks daily, end of recovery period).
The CC50 of `COc1cc(/C=C/c2ccc3c(c2)[C@@H](c2cc(OC)cc(OC)c2)[C@H](c2ccc(O)cc2)O3)cc(OC)c1` is reported as 1200 µM (dog cells; 1 (unit not given)).
`CC(=O)NCC(=O)N[C@@H](CCCNC(=N)N)C(=O)N[C@@H](CCCCN)C(=O)N[C@@H](CCCCN)C(=O)N[C@@H](CCCNC(=N)N)C(=O)N[C@@H](CCCNC(=N)N)C(=O)N[C@@H](CCC(N)=O)C(=O)N[C@@H](CCCNC(=N)N)C(=O)N[C@@H](CCCNC(=N)N)C(=O)N[C@@H](CCCNC(=N)N)C(=O)N1CCC[C@H]1C(=O)N[C@@H](CCC(N)=O)C(N)=O` has a concentration of 8.2 nM and 12.6 nM and 11 nM (HEK-293T; subcellular fractionation LC-MS; nuclear fraction; 20 µM, 24 h).
The viability of `CC[C@H](C)[C@H](NC(=O)[C@H](C)NC(=O)[C@H](CCCCN)NC(=O)[C@H](CCCCN)NC(=O)[C@@H](N)CCCNC(=N)N)C(=O)N[C@@H](CCCCN)C(=O)N[C@@H](CC(C)C)C(=O)N[C@H](C(=O)N[C@@H](CCCCN)C(=O)N[C@@H](CCCCN)C(=O)N[C@@H](CC(C)C)C(=O)N[C@H](C(=O)N[C@@H](CCCCN)C(=O)N[C@@H](CCCCN)C(=O)N[C@@H](CC(C)C)C(=O)N[C@@H](CCCCN)C(=O)N[C@@H](CCCCN)C(=O)N[C@@H](C)C(=O)N[C@@H](CC(C)C)C(=O)N[C@@H](CCCCN)C(=O)O)C(C)C)C(C)C` is reported as 83.9% (HaCaT; cell growth or viability, MTT; 32 µg/mL).
For `CC(C)C[C@H](NC(=O)[C@@H](NC(=O)[C@H](CCCCN)NC(=O)[C@H](CCCCN)NC(=O)[C@H](CC(C)C)NC(=O)[C@H](Cc1c[nH]c2ccccc12)NC(=O)[C@H](CCCCN)NC(=O)[C@H](CC(C)C)NC(=O)[C@H](CC(C)C)NC(=O)[C@H](CCCCN)NC(=O)[C@H](CCCCN)NC(=O)[C@@H](N)C(C)C)C(C)C)C(N)=O`, “minimum haemolytic concentration” read 124 µM (sheep red blood cells; 10% haemolysis; 1 h, 37 °C).
`CC[C@H](C)[C@H](NC(=O)[C@H](Cc1c[nH]c2ccccc12)NC(=O)[C@H](Cc1ccc(O)cc1)NC(=O)[C@H](CCCCN)NC(=O)[C@H](CC(C)C)NC(=O)[C@H](CO)NC(=O)[C@@H](N)Cc1ccccc1)C(=O)N[C@@H](CCCNC(=N)N)C(=O)N[C@@H](Cc1ccc(O)cc1)C(=O)N[C@@H](CCCCN)C(=O)N[C@@H](CCCNC(=N)N)C(=O)N[C@@H](CCC(N)=O)C(=O)NCC(=O)N[C@@H](C)C(=O)N[C@@H](C)C(=O)N[C@@H](CCCNC(=N)N)C(=O)N[C@@H](Cc1ccccc1)C(N)=O` has a hemolysis of 4.2 ± 0.1% (rat erythrocytes; 200 µM, 60 min, 37 °C).
`CC(=O)Oc1ccc(/C=C/C(=O)Oc2cc(C(F)(F)F)ccc2C(F)(F)F)cc1OC(C)=O` gave a CC50 of 150 µM (HaCaT; cell growth or viability, MTT; 24 h).
For `CNC(=O)C[C@H](Cc1ccc(F)cc1)NC(=O)[C@@H](Cc1ccc(Cl)cc1Cl)NC(=O)[C@H](N)Cc1ccccc1[N+](=O)[O-]`, the viability was 0.999 and 1.01 (Huh-7-ACE2; CellTiter-Glo; 0.391 µM, 48 h, unit not given; reference: DMSO).
`CC[C@H](C)[C@H](NC(=O)CNC(=O)[C@@H](NC(=O)CNC(=O)[C@@H](NC(=O)CNC(=O)[C@@H](NC(=O)[C@@H](NC(=O)[C@H](CCC(N)=O)NC(=O)[C@H](CCC(=O)O)NC(=O)[C@@H](NC(=O)[C@H](CC(C)C)NC(=O)[C@H](CCCNC(=N)N)NC(=O)[C@H](Cc1ccccc1)NC(=O)[C@@H](NC(=O)[C@H](CC(N)=O)NC(=O)[C@H](CCCCN)NC(=O)CNC(=O)[C@H](CCSC)NC(=O)[C@H](CCCCN)NC(=O)CNC(=O)[C@H](CC(C)C)NC(=O)[C@H](CCCCN)NC(=O)[C@H](CCCCN)NC(=O)CNC(=O)[C@H](Cc1ccccc1)NC(=O)[C@H](CCCCN)NC(=O)[C@H](CCCCN)NC(=O)[C@H](CC(C)C)NC(=O)[C@H](Cc1c[nH]c2ccccc12)NC(=O)CN)C(C)C)C(C)C)C(C)C)C(C)C)C(C)C)C(C)C)C(=O)N[C@@H](CC(N)=O)C(=O)N[C@@H](C)C(=O)N[C@@H](CC(C)C)C(=O)N[C@@H](CO)C(=O)O` has an HC50 of 2.77 log10 µg/mL (rat erythrocytes; haemolysis; 1 h, 37 °C, 2% erythrocytes in PBS).

Repeated from above:
The CC50 of `COc1cc(/C=C/c2ccc3c(c2)[C@@H](c2cc(OC)cc(OC)c2)[C@H](c2ccc(O)cc2)O3)cc(OC)c1` is reported as 1200 µM (dog cells; 1 (unit not given)).
The viability of `CC[C@H](C)[C@H](NC(=O)[C@H](C)NC(=O)[C@H](CCCCN)NC(=O)[C@H](CCCCN)NC(=O)[C@@H](N)CCCNC(=N)N)C(=O)N[C@@H](CCCCN)C(=O)N[C@@H](CC(C)C)C(=O)N[C@H](C(=O)N[C@@H](CCCCN)C(=O)N[C@@H](CCCCN)C(=O)N[C@@H](CC(C)C)C(=O)N[C@H](C(=O)N[C@@H](CCCCN)C(=O)N[C@@H](CCCCN)C(=O)N[C@@H](CC(C)C)C(=O)N[C@@H](CCCCN)C(=O)N[C@@H](CCCCN)C(=O)N[C@@H](C)C(=O)N[C@@H](CC(C)C)C(=O)N[C@@H](CCCCN)C(=O)O)C(C)C)C(C)C` is reported as 83.9% (HaCaT; cell growth or viability, MTT; 32 µg/mL).
